Assay results pooled from the literature.
Values joined by “and” are separate records of one study, mostly repeats; a detail may differ. ± marks the error that the study gave.
B1: human Nup88; sequence looked up; chain AAAEGPVGDGELWQTWLPNHVVFLRLREGLKNQSPTEAEKPASSSLPSSPPPQLLTRNVVFGLGGELFLWDGEDSSFLVVRLRGPSGGGEEPALSQYQRLLCINPPLFEIYQVLLSPTQHHVALIGIKGLMVLELPKRWGKNSEFEGGKSTVNCSTTPVAERFFTSSTSLTLKHAAWYPSEILDPHVVLLTSDNVIRIYSLREPQTPTNVIILSEAEEESLVLNKGRAYTASLGETAVAFDFGPLAAVPKTLFGQNGKDEVVAYPLYILYENGETFLTYISLLHSPGNIGKLLGPLPMHPAAEDNYGYDACAVLCLPCVPNILVIATESGMLYHCVVLEGEEEDDHTSEKSWDSRIDLIPSLYVFECVELELALKLASGEDDPFDSDFSCPVKLHRDPKCPSRYHCTHEAGVHSVGLTWIHKLHKFLGSDEEDKDSLQELSTEQKCFVEHILCTKPLPCRQPAPIRGFWIVPDILGPTMICITSTYECLIWPLLSTVHPASPPLLCTREDVEVAESPLRVLAETPDSFEKHIRSILQRSVANPAFLKASEKDIAPPPEECLQLLSRATQVFREQYILKQDLAKEEIQRRVKLLCDQKKKQLEDLSYCREERKSLREMAERLADKYEEAKEKQEDIMNRMKKLLHSFHSELPVLSDSERDMKKELQLIPDQLRHLGNAIKQVTMKKDYQQQKMEKVLSLPKPTIILSAYQRKCIQSILKEEGEHIREMVKQINDIRNHVNF
B2: PRPS1 (human); sequence looked up; chain PNIKIFSGSSHQDLSQKIADRLGLELGKVVTKKFSNQETCVEIGESVRGEDVYIVQSGCGEINDNLMELLIMINACKIASASRVTAVIPCFPYARQDKKDKSRAPISAKLVANMLSVAGADHIITMDLHASQIQGFFDIPVDNLYAEPAVLKWIRENISEWRNCTIVSPDAGGAKRVTSIADRLNVDFALIHKERKKANEVDRMVLVGDVKDRVAILVDDMADTCGTICHAADKLLSAGATRVYAILTHGIFSGPAISRINNACFEAVVVTNTIPQEDKMKHCSKIQVIDISMILAEAIRRTHNGESVSYLFSHVPL

| Substance | target or system | assay | system | conditions | how to read | measurement | result |
| --- | --- | --- | --- | --- | --- | --- | --- |
| equol sulfate |  |  | human, plasma | dose not given, median |  | plasma concentration | 0.825 µM |
| colistin | Escherichia coli | broth microdilution | clinical isolate RKI-No_602/16 |  |  | MIC | 16 mg/L |
| Cy5.5 |  | IVIS fluorescence, two-compartment model | BALB/c mouse, tumour-free, blood |  |  | t1/2 beta | 9.72 h |
| Teicoplanin |  | item: stability | human serum | time not given, high QC, 3 freeze-thaw cycles |  | recovery | 97.5% |
| regorafenib N-β-glucuronide |  |  | Oatp1b2 knockout mice, plasma | oral, 10 mg/kg regorafenib single dose |  | Cmax | 0.179 ± 0.0614 µg/mL |
| CTOP |  | RP-HPLC | HALO C18 column | 25 µM, formic acid/acetonitrile, 25 min gradient |  | retention time | 5.66 min |
| coproporphyrin I |  |  | human, plasma | control period |  | diurnal variation (Cmean-Cmin)/Cmean | 18.6 ± 2.2% |
| B1 (human Nup88) | U2OS CYB5R4 knock-out | phosphoproteomics |  | concentration not given, with: cisplatin | baseline: untreated CYB5R4 knock-out U2OS | phosphorylation log2 fold change | 6.91 |
| coproporphyrin III |  | UHPLC-MS/MS | human, serum | oral, 20 mg ezetimibe, 1.33 h, geometric mean ezetimibe phase |  | serum concentration | 0.000693 µM |
| FNA / CGLSGLGVA-NH2 ([18F]FNA-labelled, C-amide) |  | gamma counting | peptide, glioblastoma mice, skull bone | 60 min |  | tissue uptake | 0.57 %ID/g |
| caspofungin |  |  | adult ICU patients, mITT, serum | dose not given, EOT |  | alkaline phosphatase | 167 U/L |
| B2 (PRPS1) | PP6C (human) | co-immunoprecipitation, IP-MS | CYB5R4 knockout cells | concentration not given | baseline: CYB5R4 knockout over parental | log2 fold change | -2.66 |
| Polymyxin B |  | LC-MS | Sprague-Dawley rat, left hippocampus | intracerebroventricular, 0.75 mg/kg, 1 h |  | concentration | 1.73 µg/mL and 0.51 µg/mL and 0.99 µg/mL and 0.22 µg/mL |
| [177Lu]Lu-DOTA-TATE |  | radio-HPLC | PBS | 24 h, 37 °C, 50 MBq/nmol |  | intact radiolabelled peptide | 95.7 ± 0.5% |
| C-peptide |  |  | prepared human sample | one freeze-thaw cycle | baseline: untreated control | bias | 13.7% |
| protopine |  |  | placenta perfusion | 360 min | baseline: initial amount | amount in maternal perfusate | 23.1 ± 4.8% |

Excerpt of the above:
| Substance | target or system | assay | system | conditions | how to read | measurement | result |
| --- | --- | --- | --- | --- | --- | --- | --- |
| B2 (PRPS1) | PP6C (human) | co-immunoprecipitation, IP-MS | CYB5R4 knockout cells | concentration not given | baseline: CYB5R4 knockout over parental | log2 fold change | -2.66 |
| C-peptide |  |  | prepared human sample | one freeze-thaw cycle | baseline: untreated control | bias | 13.7% |
